Published values gathered from unrelated publications.
Each numbered part is a random draw from the data of one study; scales do not carry over between parts. Substitutions count along the parent as printed.

Set 1 — target: inorganic phosphate, free oxyanion; technique: microfluidic competitive inhibition; matrix: in vitro, cell-free expressed; tested at: not given; direction: lower = stronger binding
Notes: derived from inhibition constants, unchanged parent 615000 nM
Parent: PafA, mature enzyme, eGFP fusion (Elizabethkingia meningoseptica, UniProt Q9KJX5); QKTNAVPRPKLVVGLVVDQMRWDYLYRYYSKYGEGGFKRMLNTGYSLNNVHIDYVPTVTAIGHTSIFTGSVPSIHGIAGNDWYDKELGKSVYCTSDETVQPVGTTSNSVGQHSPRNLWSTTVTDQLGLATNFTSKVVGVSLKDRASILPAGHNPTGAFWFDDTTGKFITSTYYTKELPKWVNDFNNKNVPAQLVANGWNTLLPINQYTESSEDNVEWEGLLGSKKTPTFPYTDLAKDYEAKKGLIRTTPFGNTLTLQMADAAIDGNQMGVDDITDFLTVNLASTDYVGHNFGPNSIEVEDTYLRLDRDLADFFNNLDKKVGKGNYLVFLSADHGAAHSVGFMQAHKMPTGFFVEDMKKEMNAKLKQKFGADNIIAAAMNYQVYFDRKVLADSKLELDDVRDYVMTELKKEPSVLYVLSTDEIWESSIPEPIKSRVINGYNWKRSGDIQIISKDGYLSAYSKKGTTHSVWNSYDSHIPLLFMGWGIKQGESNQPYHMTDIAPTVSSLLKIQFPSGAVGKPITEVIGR
Variant	phosphate dissociation constant [µM]
D183V	673
K358V	700
K367G	553
Y231V	509
S65G	482
N324G	506
N361G	636
L87V	656
G197V	628
F229G	128
P114V	554
K346G	495
L47G	470
P430V	558
S467V	1030
R21G	550
K242V	532
L303V	659

Set 2 — technique: RNA Bind-n-Seq; molecule type: RNA; matrix: in vitro; tested at: 365 nM; baseline: no-protein control; direction: higher = stronger binding
Target: RNA binding protein fox-1 homolog 2, RRM domain, GST-SBP tag (RBFOX2, Homo sapiens, UniProt O43251-10, residues 100-194)
Notes: natural RNA segment, single round, ends assumed
Constant ends, left off below: GGGAGUUCUACAGUCCGACGAUC … UGGAAUUCUCGGGUGCCAA
Construct (chain): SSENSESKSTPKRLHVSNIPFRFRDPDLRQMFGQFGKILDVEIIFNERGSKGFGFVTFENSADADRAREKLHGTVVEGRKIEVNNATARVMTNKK
Sequence	RBNS enrichment (R)
UGCCAGUGAGACAUCGUAUCUGUGCUUAGUCACUGAAGUGAGAACAUACUCCCGCCCCAAGGGAGGCUUCUCUCCAUCAGGGUGGUACACGGGCAACAAAGUAGGGAUUU	0.242
UGGAUGGCCUGAAGAAGCUGUUCUCCAGCCACAACAACCACAGAAAGCCCCUCGCUCUCCCCUCUCUGUUUUCCCAUUAAUCAAAGCCAUGUCUAGAAUGGGCCAGCCAC	0.53
AACCUUAUGAGCAGUGUACAAAUAUCAUGAGACAACUGAUCAGCACUUGCACCUGAUCAAGAGCAGUGCUGCUCCAUUUGUUUUGCAAAGAUAUGUUUUCAUUUCCUGUA	0.329
GUAGAAAUUCUCGAGUAUUUUGGUGUUGGAUAGAAUAUAGAACAUAGGGGAAAGAGACCAAACUGCCUGUAGUUAGUAACGAAGUAUGUAUGUUGUUCUUUUGUGUAUUU	1.35
GUCGGGUCUUGCUGACUUCUCUUCACUUGAGGUCACAUUUUUCCCCCGUGGGGAAAUAAACUGACUUUGGACUGCUUCAGUUUCUGCCAUCUUCCAUGACUGCUUCUAUU	0.903
AUGUAUCGCUGCUGUCCAGCAUGCUUUUCUUCUUUUUAUCCAAACAUGAGGCCAGGAGGAUAAUUAACUUGAGGAAUAGACAACUUACAUUCACUACAUAUUUAAUCAUG	8.67
AAGCUCCAAUGUAUUAUGGAAACAUGUGCUUUUACGCCUCCAAUAAAACUAUGUUAUCGAUGGGCUCAGCUUCUAGAACCUUCUUUUCCGCUGAACCAGAAUCUAUCCCG	0.436
UUUUCUGACCCUUCUCGAGGACAUUUGCUUUCCUCACACUUUUGUAGUCUCUCUUUACAUAUUACUAUAUGGAAAUGAAUUGCUCUGUGCUGAAAUUUGAAGACCAGAUA	0.763

Set 3 — effect on: binding; technique: phage display NGS; molecule type: peptide; tested at: concentration not given; baseline: input library
Target: UDP-N-acetylglucosamine--peptide N-acetylglucosaminyltransferase 110 kDa subunit (OGT, Homo sapiens, UniProt O15294)
UniProt O15294, sequence (whole entry, looked up): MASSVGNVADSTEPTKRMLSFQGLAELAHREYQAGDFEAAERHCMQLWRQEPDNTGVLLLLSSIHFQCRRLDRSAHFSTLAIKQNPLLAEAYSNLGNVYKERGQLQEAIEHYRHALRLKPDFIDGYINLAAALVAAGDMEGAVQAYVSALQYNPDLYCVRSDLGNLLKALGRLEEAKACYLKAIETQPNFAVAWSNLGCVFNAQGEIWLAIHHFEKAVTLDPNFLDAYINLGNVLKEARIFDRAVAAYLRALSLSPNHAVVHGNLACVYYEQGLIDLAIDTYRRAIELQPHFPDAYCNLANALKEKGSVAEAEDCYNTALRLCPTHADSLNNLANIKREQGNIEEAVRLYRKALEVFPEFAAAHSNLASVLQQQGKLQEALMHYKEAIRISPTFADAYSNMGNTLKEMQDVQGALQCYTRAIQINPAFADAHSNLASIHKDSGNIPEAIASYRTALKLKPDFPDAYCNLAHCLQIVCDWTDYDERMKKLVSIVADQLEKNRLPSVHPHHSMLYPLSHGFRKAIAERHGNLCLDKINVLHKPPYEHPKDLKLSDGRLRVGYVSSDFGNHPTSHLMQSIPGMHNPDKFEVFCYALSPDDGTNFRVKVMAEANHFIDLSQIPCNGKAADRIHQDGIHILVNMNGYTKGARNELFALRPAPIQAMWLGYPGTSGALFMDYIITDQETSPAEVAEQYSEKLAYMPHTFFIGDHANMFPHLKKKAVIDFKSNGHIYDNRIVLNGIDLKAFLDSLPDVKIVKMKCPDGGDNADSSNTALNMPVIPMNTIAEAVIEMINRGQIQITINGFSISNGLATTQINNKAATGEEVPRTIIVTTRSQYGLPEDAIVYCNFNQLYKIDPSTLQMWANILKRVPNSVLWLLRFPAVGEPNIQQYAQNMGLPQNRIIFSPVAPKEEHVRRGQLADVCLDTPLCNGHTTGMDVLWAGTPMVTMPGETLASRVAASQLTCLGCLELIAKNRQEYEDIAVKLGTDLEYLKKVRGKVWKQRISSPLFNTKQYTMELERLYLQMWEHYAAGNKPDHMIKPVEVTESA
Molecule	enrichment fold change
VPLYHERHHHGPHE	6.56
HTQTHWIPHEIRHV	9.75
RHTQIKHHVPHQLF	4.12
HRGQGDEEHWHRHQA	5.95
FPVHHHYKWFQHEVD	6.37
YPPYAFHQATHHHHK	9.53
SRPIKWVPQYQIVI	2.9
QPTKHFRSHHTYTAN	7.54
GKRDHTFHMHSSVH	5.02
WIFPSQHARHYNTLG	3.44
HNHRHHITSAAIAQA	4.06
YTIDVVFEPKYQIMT	8.08
SRTLTPMYQIHPFTS	2.26
SIIPLAHVHNDHHAH	7.64
YSLHIAQHHDAYTIH	6.91
TGMHDAHPHWWHMTV	9.8
HDTMHHFYHKREWTQ	2.87
DNKMHARNHQQHPH	8.48
HYPHHDYLWHPITNV	3.22

Mixed results
Substance	partner	assay	system	conditions	quantity	result
PSMD3 (Homo sapiens, UniProt O43242)	PAAF1 (Homo sapiens, UniProt Q9BRP4)	cross-linking MS	cell fractions	together with: DMTMM	cross-linked residues	E40 to K65

Repeated from above (set 3):
Molecule	enrichment fold change
DNKMHARNHQQHPH	8.48
GKRDHTFHMHSSVH	5.02
TGMHDAHPHWWHMTV	9.8
